Assay results from different studies.
± gives the spread as reported.

| SMILES | target or system | assay | system | conditions | scale | endpoint | result |
| --- | --- | --- | --- | --- | --- | --- | --- |
| COC1CN([C@H]2CC[C@H]([C@@]3(C)Oc4c(Cl)cc(C(=O)NCc5c(SC)cc(C)[nH]c5=O)c(C)c4O3)CC2)C1 | – | RNA-seq, refers to: BTBD11 | human, whole blood | dose not given, 24 h | relative to: pretreatment baseline | log2 fold change | 1.1 |
| CNS(=O)(=O)Nc1nccc(Cc2c(C)c3ccc(Oc4ncccc4F)cc3oc2=O)c1F | OCI-Ly7 | cell viability | – | 7 days | – | IC50 | > 1000 nM |
| C=CC(=O)Nc1cccc(Cn2ncc3cnc(Nc4cnn(CCOC)c4)nc32)c1 | PHKG1 human | binding, KINOMEscan | – | 100 nM | lower = stronger binding | percent of control | 100% |
| Cc1ncsc1-c1ccc(C(C)NC(=O)C2CC(O)CN2C(=O)C(NC(=O)CCCCCCCCCCN2CCCC(Nc3ncc(Cl)c(Nc4ccccc4S(=O)(=O)C(C)C)n3)C2)C(C)(C)C)cc1 (stereo not drawn) | 22Rv1 | RNA-seq, refers to: MAU2 mRNA | – | concentration not given | relative to: DMSO | log2 fold change | -1.52 |
| COc1cc(O)ccc1CCC(c1ccc(O)cc1)c1cc2c(c(C)c1O)OC(c1ccc(O)cc1)CC2 (mixture of isomers) | – | – | human blood | 3 µM, together with: A23187 | – | 5-HEPE level | 63 ± 28 pg/mL |
| CCN(CC)CC(=O)Nc1cccc(-n2cc(-c3ccc4ccc(-c5cn(-c6cccc(NC(=O)CN(CC)CC)c6)nn5)cc4c3)nn2)c1 | RCC4 | PCR angiogenesis array, refers to: CXCL5 | – | 5 x IC50, 2 h, normoxia | relative to: untreated | fold regulation | 1.06 |
| COc1ccc(C(=O)CCc2cc(C(CCc3ccc(O)cc3OC)c3ccc(O)cc3)c(O)cc2OC)cc1 (racemic) | – | – | human blood | 3 µM, together with: A23187 | – | PGD2 level | 6 ± 6 pg/mL |
| Nc1ncc(-c2cc(-c3cnn(CC(F)(F)F)c3)ncc2F)nc1C(=O)NC1CNCC(F)C1 (stereo not drawn) | WEE1 | KINOMEscan | – | 1 µM | relative to: DMSO control | remaining binding | 86% |
| CN1CCCNC(=O)c2cccc(c2)C(=O)NCCCN(C)CCCNc2cccc3c2C(=O)c2cccc(c2C3=O)NCCC1 | SAS | RNA-Seq, refers to: SSR2 mRNA | – | 1 µM, 6 h | relative to: untreated cells | log2 fold change | -0.701 |
